Measurements from different studies.
A part holds a random share of what one study measured. Substitutions count along the parent as printed.

Sample 1 — technique: competition protein-binding microarray; form: double-stranded DNA, one strand shown; matrix: in vitro; tested at: 2 µM; added: Pho4 competitor, 0.05 µM; reading: higher = stronger binding; endpoint: fluorescence intensity; shared flanks, not repeated: … GTCTTGATTCGCTTGACGCTGCTG
Target: Centromere-binding protein 1, full length, His-tagged (CBF1, Saccharomyces cerevisiae, UniProt P17106, residues 1-351)
Chain of UniProt P17106 (whole entry, looked up): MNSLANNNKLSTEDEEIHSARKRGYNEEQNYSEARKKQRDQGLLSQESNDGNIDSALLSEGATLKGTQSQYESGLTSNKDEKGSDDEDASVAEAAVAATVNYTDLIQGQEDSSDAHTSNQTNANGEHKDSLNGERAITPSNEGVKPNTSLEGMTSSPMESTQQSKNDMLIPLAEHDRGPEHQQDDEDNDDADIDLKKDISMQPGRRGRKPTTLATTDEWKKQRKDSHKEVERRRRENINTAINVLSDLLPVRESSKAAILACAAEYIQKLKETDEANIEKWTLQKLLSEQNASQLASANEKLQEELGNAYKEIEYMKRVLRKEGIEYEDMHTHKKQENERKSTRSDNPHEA
Setting: whole 60-bp probe, lowest competitor level
TAAATCGAAACCACCATCGTGTCCTTCCTTGGGAAC: 71.6 a.u.
CTTTCCCGATCTTGTGAGGTGGGTGTAGCACATTTG: 76.5 a.u.
CCGCTCCCGGCTTGCCACGTGACAAGCCACAGTGTT: 5050 a.u.
AAAGCGGTAATTTGAGCTGTGGGTGCAGATATCTAT: 85.2 a.u.
CTTCTGTAAATTTGTCTTGTGGGTGGACGCGCCCCG: 85 a.u.
CGTCCTAGTGATTTTCACGTGAAGTCCATGAGGAAG: 787 a.u.
CGCTTTCTAAGGAGCCACGTGTAGGGGGAGCTGGTG: 730 a.u.
GTCTTGTCTCATTGGGTGGTGGGTGTCCCCACTTCA: 84.3 a.u.
AAAGCGGTAATTTTGCACGTGTTTTCACATATCTAT: 2460 a.u.
CTTCTGTAAATTTGTTCCGTGGGTGGACGCGCCCCG: 73.6 a.u.
GAACGGATGCCCGAGCCCGTGCCAGCGCCCGAGCCT: 54.3 a.u.
TGAATTACTTCGCCCAACGTGTTGATGGCATGGGCA: 77.9 a.u.
CAAATGGGTGGGTGGCGCGTGGCAGGGACTTCCCTA: 55.2 a.u.
GGAAAGCAACGAGTGATCGTGACGGCATAATTGCCT: 101 a.u.
AAATTACTAAGTTGCCTGGTGGGTGACGCCGTATGA: 56.6 a.u.
AAAAAAAAAAAAAGGTATGTGCGGGAAGAGAATCTA: 166 a.u.
AACTCTTTTGAAAATTACGTGCCAGAAAACCCAACC: 109 a.u.
TGTTCTCGACGACAACTCGTGTCGGTTCCATGCTAT: 87.6 a.u.
GCCTCTGTACAATGCCACGTTGATACGCCCAGCAGC: 101 a.u.

Sample 2 — technique: DHFR PCA, deep sequencing; matrix: yeast; added: (+)-ABA 17 µM; relative to: wild-type fitted maximum; reading: higher = stronger binding; endpoint: relative binding score
Target: ABI1, truncated, D143A, DHFR fusion (Arabidopsis thaliana)
Setting: methotrexate growth selection, single substitutions
Starting sequence: PYL1, truncated, DHFR fusion (Arabidopsis thaliana); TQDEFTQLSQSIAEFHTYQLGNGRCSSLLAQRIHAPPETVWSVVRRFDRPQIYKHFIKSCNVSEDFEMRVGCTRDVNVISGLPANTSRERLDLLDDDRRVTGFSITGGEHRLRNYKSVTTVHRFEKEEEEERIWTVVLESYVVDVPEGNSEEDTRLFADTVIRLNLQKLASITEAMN
H122K: 9.87%
L91C: 48.1%
F47I: 7.82%
S11A: 82.8%
S150D: 70%
L91S: -3.16%
H122F: -2.12%
E139R: 1.28%
K116M: 16.7%
H122R: 2.03%
L93K: 71.1%
I133D: 110%
L8D: -12.9%
C60H: 9.44%
Q2G: 69.5%
E130N: 82.2%
C25Y: -6.09%
R99G: 38.7%
N177P: 37.7%
W134K: 59.5%

Sample 3 — target: CCNE2, cyclin fold, Cln2 fusion (human); technique: yeast growth competition, sequencing; matrix: yeast; setting: weak parent motif; relative to: not given; reading: higher = stronger binding; endpoint: normalised enrichment score
Starting sequence: CDC6 docking peptide (human); TLKGRRLVFDNQL
K3M: -0.0478
T1K: 0.468
N11R: 0.774
L7D: -0.00959
D10S: 0.405
L7G: 0.816
N11G: 0.549
L7W: 1.03
D10A: -0.0931
T1R: 0.4
V8W: 0.588
R5I: -0.218
F9P: 1
L7I: 0.0385
L7P: -0.0106
Q12N: 0.541
T1L: -0.0421
R5N: -0.0277
F9I: 0.846
R6L: 0.131
G4C: 1.05

Sample 4 — technique: protein-binding microarray; form: double-stranded DNA, one strand shown; matrix: in vitro; tested at: 2540 nM top; setting: 60-bp whole probe; added: salmon DNA 0.4 mg/ml; relative to: random background probes; reading: higher = stronger binding; endpoint: fitted relative affinity; shared flanks, not repeated: GCCTAGCAC … GTCTTGATTCGCTTGACGCTGCTG
Target: Interferon regulatory factor 3, full length, phosphomimetic (IRF3, Homo sapiens, UniProt Q14653, residues 1-427, S386D/S396D/S398D/S402D/T404D/S405D)
Construct (chain): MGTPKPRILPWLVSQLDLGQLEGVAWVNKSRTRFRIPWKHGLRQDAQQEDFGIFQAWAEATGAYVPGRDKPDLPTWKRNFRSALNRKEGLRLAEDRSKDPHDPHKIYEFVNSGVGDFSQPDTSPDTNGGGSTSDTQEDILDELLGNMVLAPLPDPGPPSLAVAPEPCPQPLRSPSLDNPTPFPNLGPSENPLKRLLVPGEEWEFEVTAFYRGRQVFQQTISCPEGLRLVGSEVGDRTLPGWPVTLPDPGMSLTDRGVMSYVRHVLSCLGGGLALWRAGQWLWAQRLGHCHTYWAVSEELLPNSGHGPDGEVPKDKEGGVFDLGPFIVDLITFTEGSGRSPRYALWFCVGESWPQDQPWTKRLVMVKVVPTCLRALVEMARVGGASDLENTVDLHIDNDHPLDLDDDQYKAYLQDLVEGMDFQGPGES
ATAGGACTGGACACTGGGTTAGTGCTA: -0.626 z-score
GACTGACTGCTTTTCCTGACGTGCTAG: -0.19 z-score
CTGTTTTTGCTTTCCTTTATGTGCTAG: 4.71 z-score
GACGGACGGCTTCTCCTGACGTGCTAG: -0.717 z-score
GACTGTATCCTACTGCTGACGTGCTAG: 2.44 z-score
TTAGAACTGAGTTTCCATTAGTGCTAG: 2.76 z-score
TTAGATATCAGTTTCCATTAGTGCTAG: 5.53 z-score
TTAGAATTGAGACTGGATTAGTGCTAG: -0.422 z-score
TTAGGGTTCGACTATCGGTTAGTGCTA: -0.079 z-score
GACGGACTGCTTCTCCTGCCGTGCTAG: -0.514 z-score
TATGTTTTTCATTTTGTTCAGTGCTAG: 2.07 z-score
GTGTGTTTGTGTGTGTATGTGTGCTAG: -0.45 z-score
AAGGGTTAAAATTTTGCTTCGTGCTAG: -0.593 z-score
CATCCTGAGTCAAGTCAAGTGTGCTAG: 1.18 z-score
GACGGTTTCGGTTATCGGGACGTGCTA: 7.95 z-score
TTGTTTTTCATTATTGTCTCGTGCTAG: 1.58 z-score
CCTCACATGACTGAATGGACGTGCTAG: 0.0877 z-score
GACGATATCAGTTTCGCGACGTGCTAG: 2.48 z-score
GACGGTCTCCTACTGATGACGTGCTAG: 1.02 z-score

Mixed results
PhoQ, residues 284 288 289 292 302 303 TLSLKA
fold induction (PhoP, residues 12 14 15 18 19 LWHVM (Escherichia coli, UniProt P23836); Sort-seq, refers to: YFP reporter; E. coli; PhoQ-PhoP variant library, added: 10 µM Mg2+; relative to: high Mg2+ state, higher = stronger signaling): 0.609

For quick reference, copied from above (sample 3):
T1K: 0.468
N11R: 0.774
L7D: -0.00959
D10S: 0.405
L7G: 0.816
N11G: 0.549
L7W: 1.03
D10A: -0.0931
T1R: 0.4
